Published values pooled from the literature.
Numbered parts are unrelated; each lists some results of a single study.

Series 1
Target: Centromere-binding protein 1, full length, His-tagged (CBF1, Saccharomyces cerevisiae, UniProt P17106, residues 1-351)
Chain of UniProt P17106 (whole entry, looked up): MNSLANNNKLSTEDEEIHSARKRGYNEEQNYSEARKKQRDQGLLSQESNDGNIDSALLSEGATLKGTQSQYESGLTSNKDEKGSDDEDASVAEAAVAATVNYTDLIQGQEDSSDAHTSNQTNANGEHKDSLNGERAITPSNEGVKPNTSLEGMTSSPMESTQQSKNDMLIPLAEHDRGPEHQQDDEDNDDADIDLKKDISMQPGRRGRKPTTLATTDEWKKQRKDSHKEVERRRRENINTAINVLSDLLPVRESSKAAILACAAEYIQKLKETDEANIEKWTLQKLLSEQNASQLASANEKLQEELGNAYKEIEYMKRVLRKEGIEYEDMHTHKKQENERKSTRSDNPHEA
Method: competition protein-binding microarray
Form: double-stranded DNA, one strand shown
Sample: in vitro
Tested at: 2 µM
Setting: whole 60-bp probe, lowest competitor level
With: Pho4 competitor, 0.05 µM
Reading: higher = stronger binding
Strand | fluorescence intensity
GCTTTTCCTAACGCGAACGTGCAAAGCATCGTTATTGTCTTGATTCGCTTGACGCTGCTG | 91.1 a.u.
CTAACGAAGGTTTGCGATGTGGGTGACAAGCCAAGTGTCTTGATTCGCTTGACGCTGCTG | 71.7 a.u.
GAGCCTGTCGCCTCTTACATGACAAAAATGTTGGAAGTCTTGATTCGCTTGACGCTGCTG | 79.6 a.u.
CTTCTGTAAATTTGTCTAGTGGGTGGACGCGCCCCGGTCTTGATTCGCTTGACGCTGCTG | 82.1 a.u.
CATACCCAACCTTGCTTAGTGGGTGAAGATATTTGTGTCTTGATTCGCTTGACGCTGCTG | 64.4 a.u.
CAGTGGGAATCTGTTCATGTGGCTGTATCACAACCAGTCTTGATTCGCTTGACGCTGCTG | 86 a.u.
TGTTTACAGCCGAGTCACGGGATATTGGTCTGTGAAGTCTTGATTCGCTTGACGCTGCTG | 1060 a.u.
GGAGCAGGCTCAGAGAATGTGACGAAATTCGCTTTAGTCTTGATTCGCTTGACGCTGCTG | 69.7 a.u.
CATGTCTTGCACTGTCACACGATTGTAATTCAATTGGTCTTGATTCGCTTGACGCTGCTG | 134 a.u.
AAATTACTAAGTTGAGATGTGGGTGACGCCGTATGAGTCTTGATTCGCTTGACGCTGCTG | 85.3 a.u.
TGCGCAACAACTTGATGCGTGGGTGTATGTCTAGAAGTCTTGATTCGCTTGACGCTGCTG | 73.9 a.u.
CTAACGAAGGTTTGGCAAGTGGGTGACAAGCCAAGTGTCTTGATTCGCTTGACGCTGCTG | 63.7 a.u.
GGGTGTCGATACCGTCACGTGAAGACATTCCAAGTCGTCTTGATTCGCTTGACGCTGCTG | 3650 a.u.
CGGGGTTAAGTTTGGACAGTGGGTGGCTTGCAGCAGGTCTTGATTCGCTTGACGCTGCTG | 71.3 a.u.
CATACCCAACCTTGGTCTGTGGGTGAAGATATTTGTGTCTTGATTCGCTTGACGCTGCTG | 74.6 a.u.
ATTTTCCTCAATCTGCTCGTGTAAGTGTCGGCCCGGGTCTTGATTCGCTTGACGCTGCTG | 70.8 a.u.
TGCGCAACAACTTGTTAGGTGGGTGTATGTCTAGAAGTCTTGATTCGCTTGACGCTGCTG | 68.3 a.u.
CTGGAAGAGACCCACCATGTGGGATAGATCCCTGTAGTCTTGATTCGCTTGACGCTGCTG | 52.2 a.u.

Series 2
Target: RNA binding protein fox-1 homolog 2, RRM domain, GST-SBP tag (RBFOX2, Homo sapiens, UniProt O43251-10, residues 100-194)
Method: RNA Bind-n-Seq
Form: RNA
Sample: in vitro
Tested at: 365 nM
Setting: natural RNA segment, single round, ends assumed
Relative to: no-protein control
Reading: higher = stronger binding
Residues (chain): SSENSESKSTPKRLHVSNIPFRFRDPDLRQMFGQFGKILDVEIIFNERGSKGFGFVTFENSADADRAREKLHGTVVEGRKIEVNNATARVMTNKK
Strand | RBNS enrichment (R)
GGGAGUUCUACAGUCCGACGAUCUCCAUCAGGGUUUCUGCUGUUAGAAACAGGCCAAUUAUCUGCCAGGUGAAGGAAGGCAUCCCUUGUGGGGCAUUUCACUUCUUCCCACUCCCCAAAUAAUGUUACACAUGUGGAAUUCUCGGGUGCCAA | 0.35
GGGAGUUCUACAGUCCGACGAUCGUUGUUCUUUUGCAGCACUCACGCCUCUGACAGUCUUUUGGGAAAGAGUAACACCCACAUACAGAAUUUGUCACAUCCAGAGUAGCACUGUUCCUUAAUACUGGCAUAAUUGGAAUUCUCGGGUGCCAA | 0.732
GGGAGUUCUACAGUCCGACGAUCCGCCCCUCAAAUACAGACAUCUGCUUUCAUGUGGAGACUGUCUCCAGGCCUUAUUGAGACCAGACCCCUAAGCCUCCAACCCCCCAGCAUGUCCCCUAAUGGGGACUGGCUGGAAUUCUCGGGUGCCAA | 0.272
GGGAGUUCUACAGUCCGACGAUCAGCUUAACUUCAGAAAUAAGAACUAGCACACUUAGACAAACAGGAGAGCAGGGGUUUGAAGCCAGCUGUCGAAGAGCAUCCCUGCUGUCUUAAGAAGCUUUUUCCCCAUAUGGAAUUCUCGGGUGCCAA | 0.425
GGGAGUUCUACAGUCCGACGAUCUGUGAAAGAUUAAAGAAAGCACUUCCACUUGAGCUCCUUAUGGAGUGAGCUUCCCUGUGCCCACUCAGUGAACUAAGUCUGACCAUCCUUCAGGGACGUUCCUUUUGGUAUGGAAUUCUCGGGUGCCAA | 0.262
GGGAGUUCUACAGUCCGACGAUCAGCCAUUUAUUGAAUUCAACUUUUUGCCAAGGAAGCUUAUCUCAAGGGAAAUGCAGUUUUUUAAUAGGCUUAUCCAGGAAAUGUUACAGUCUCUUUAACGACAGCUAUAGUGGAAUUCUCGGGUGCCAA | 0.478
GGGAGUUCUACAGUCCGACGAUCAACCAGGAGUCACUGAGCCAAUGACUUUACCAGCUGCUGACUAAUCUUCAUCACCACUGUAGAUUUUGCUGCAUGUGCAGGUCCUCUAUUUUUAAUUGCUGUUUUCGUUGUGGAAUUCUCGGGUGCCAA | 1.33
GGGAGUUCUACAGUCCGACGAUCGGGGACCUCGUGCCUUCUUGCUGUCAUGCAAUGACCCCGCCUUAUGUUGCCGAAAUAAGCAACUCUUAGGUUUGCCUGACUGCCUUAUGCUGGUAAAGAAAAGGGAUUCAUGGAAUUCUCGGGUGCCAA | 0.504
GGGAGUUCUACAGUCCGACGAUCUUUUCUGACAGUAUUAUGUAAUUUUUUAGCGUGGGUAGAUGGGAGUGUCGCUUGUAUGUUAUCGUACAGCUGACAUGUAUUUUUGUCUAUUCUUUAUUAUCUUAGUUUCAUGGAAUUCUCGGGUGCCAA | 0.447
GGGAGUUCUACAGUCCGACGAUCGGAUUUCUGUGGAACUUGGCAAAUUUUCAGAGCACCUUCACUCACAUAAUGUCAUUUGAACCUCACAAUGUUCUUGGGAUGGAGUCAGUUGUUCAGGGUCCCCGUGUGUGUGGAAUUCUCGGGUGCCAA | 0.38
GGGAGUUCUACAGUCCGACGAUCUUCCUAGAGCCCCAGGGUCAACUGUCCUCUCUAGCAUGCAGCCUGUGACAGCUUGCUUCAGGACAAAGCAACAGUGAAGUGAGAAAAUGUCAACAGGAGAGAAAGGGCCCUGGAAUUCUCGGGUGCCAA | 17.2
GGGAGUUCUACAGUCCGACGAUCUUUUUUUCGUGUGUGUUUUUGUUAACUACGCUACAGAUAUUGAAUGCACCUUGAGAUAAUUUAGUGUUUUUAACUGGUACAUAAUUUAUCAAGCAGUACAUGAAAGUGUAUGGAAUUCUCGGGUGCCAA | 0.524

Series 3
Target: Sal-like protein 4, full length isoform A (SALL4, Homo sapiens, UniProt Q9UJQ4, residues 1-1053)
Chain of UniProt Q9UJQ4 (whole entry, looked up): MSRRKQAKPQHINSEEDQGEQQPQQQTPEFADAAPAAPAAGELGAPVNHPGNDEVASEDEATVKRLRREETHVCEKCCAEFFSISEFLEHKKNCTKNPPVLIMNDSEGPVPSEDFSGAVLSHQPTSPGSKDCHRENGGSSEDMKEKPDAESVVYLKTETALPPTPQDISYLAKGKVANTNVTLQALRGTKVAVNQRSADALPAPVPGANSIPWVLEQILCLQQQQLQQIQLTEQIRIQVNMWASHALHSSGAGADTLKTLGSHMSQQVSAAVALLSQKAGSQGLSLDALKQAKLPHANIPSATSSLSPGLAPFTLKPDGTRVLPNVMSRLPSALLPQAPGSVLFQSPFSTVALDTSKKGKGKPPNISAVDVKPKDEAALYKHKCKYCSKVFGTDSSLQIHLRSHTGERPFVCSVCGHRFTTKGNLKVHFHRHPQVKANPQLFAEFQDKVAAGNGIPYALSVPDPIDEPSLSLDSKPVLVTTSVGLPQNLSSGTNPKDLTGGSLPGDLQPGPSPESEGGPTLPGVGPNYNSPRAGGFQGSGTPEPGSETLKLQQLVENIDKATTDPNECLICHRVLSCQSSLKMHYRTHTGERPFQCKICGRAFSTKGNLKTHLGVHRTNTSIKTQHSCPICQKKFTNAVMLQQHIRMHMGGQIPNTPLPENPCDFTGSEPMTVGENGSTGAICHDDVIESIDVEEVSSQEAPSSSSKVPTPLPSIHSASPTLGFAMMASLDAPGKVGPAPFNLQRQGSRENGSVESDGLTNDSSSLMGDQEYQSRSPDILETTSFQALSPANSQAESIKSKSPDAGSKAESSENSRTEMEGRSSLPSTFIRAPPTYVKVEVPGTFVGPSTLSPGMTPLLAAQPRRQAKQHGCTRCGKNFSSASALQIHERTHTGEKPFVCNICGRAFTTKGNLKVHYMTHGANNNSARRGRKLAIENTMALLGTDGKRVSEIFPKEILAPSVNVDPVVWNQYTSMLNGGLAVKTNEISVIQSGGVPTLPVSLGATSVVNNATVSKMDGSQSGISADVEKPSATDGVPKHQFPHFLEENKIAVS
Method: universal PBM
Form: double-stranded DNA, one strand shown
Sample: in vitro
Tested at: 600 nM
Setting: 8-mer, flanks averaged, mean of replicates
Reading: higher = stronger binding
Strand | E-score
ATAGGCAG | 0.24
AGAACAAC | -0.0518
GGGAGCCC | -0.431
AACTTTGG | 0.0257
CCTTACAG | -0.0425
TAGGCTAA | -0.129
ATCCTATG | 0.116
CCGTGAAG | -0.204
ATTCATTG | 0.204
GCGGCATA | -0.0395
ACGTTTAG | 0.0131
AAACAAGA | 0.192
GTCGACCA | -0.0926
CACCAGAC | -0.224
AAAGGAAA | 0.262
CCGGGGCG | -0.414
GCTAGCAA | -0.129
AACGACTA | 0.132
GATGGTAA | 0.0916
CTCATCAC | -0.0195
AGCACGTA | 0.00685
CCCTAACA | 0.0568
ATGTCGCG | -0.0614
AGGGTCGG | -0.32
AACCTGGT | -0.187

Series 4
Target: Ras GTPase-activating protein-binding protein 1, full length (G3BP1, Homo sapiens, UniProt Q13283)
Chain of UniProt Q13283 (whole entry, looked up): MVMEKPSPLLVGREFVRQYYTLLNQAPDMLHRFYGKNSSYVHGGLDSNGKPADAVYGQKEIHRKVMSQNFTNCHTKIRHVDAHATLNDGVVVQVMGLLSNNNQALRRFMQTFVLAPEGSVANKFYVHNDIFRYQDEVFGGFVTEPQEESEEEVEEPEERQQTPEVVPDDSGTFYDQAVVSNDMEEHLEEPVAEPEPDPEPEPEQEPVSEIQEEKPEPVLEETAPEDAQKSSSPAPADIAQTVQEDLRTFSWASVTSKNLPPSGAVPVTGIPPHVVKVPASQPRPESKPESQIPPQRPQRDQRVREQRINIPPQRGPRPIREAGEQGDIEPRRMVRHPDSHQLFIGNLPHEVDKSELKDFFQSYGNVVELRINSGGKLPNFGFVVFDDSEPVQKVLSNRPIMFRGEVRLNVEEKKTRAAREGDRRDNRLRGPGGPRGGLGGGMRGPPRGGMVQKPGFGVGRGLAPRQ
Method: RNA Bind-n-Seq
Form: RNA
Sample: in vitro
Tested at: 200 nM
Setting: whole 134-nt RNA, ends assumed
With: 150 mM KCl
Relative to: input library
Reading: higher = stronger binding
Strand | log2 enrichment
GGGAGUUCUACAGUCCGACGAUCCUCAAGUCCUGUGCUACACAUCGUAUGUACCGAAUCGGGUUUGGGAGGGUGGGAAAGUAUUAUGUUACGCCGUUCGGAUCUGCACUUCCAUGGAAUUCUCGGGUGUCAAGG | 1.18
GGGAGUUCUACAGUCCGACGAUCAAGUCCUGUGCUACACAUCGUAUGUACCGAAUCGGAAAAAGGUUUUUGGUUUUUGGAAAGUAUUAUGUUACGCCGUUCGGAUCUGCACUUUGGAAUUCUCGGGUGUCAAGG | -1.66
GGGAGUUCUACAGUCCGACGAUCGCAGGAAGUAAAAACAAAUGGAAAUGCUUCGGAUAGUGGCAGGGGUGGGGGUUGCUAAGGAAAGGGUGGGAUGGGAGUGGGUAAAAAAUUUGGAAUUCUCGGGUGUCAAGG | 0.373
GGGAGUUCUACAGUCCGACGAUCUCAAGUCCUGUGCUACACAUCGUAUGUACCGAAUCGGGUUUUUGGGAGGGAGGGAAAGUAUUAUGUUACGCCGUUCGGAUCUGCACUUCCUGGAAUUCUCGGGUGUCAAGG | 0.73
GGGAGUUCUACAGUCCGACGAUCCUGUGCUACACAUCGUAUGUACCGAAUCGGGGUUUUUGGGGUUUUUGGGGAAAAAAAGGGGAAAGUAUUAUGUUACGCCGUUCGGAUCUGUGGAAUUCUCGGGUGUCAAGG | -0.323
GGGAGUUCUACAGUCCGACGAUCUCCUGUGCUACACAUCGUAUGUACCGAAUCGGGAAAAAAAGGGAAAAAAAGGGUUUGGGAAAGUAUUAUGUUACGCCGUUCGGAUCUGCAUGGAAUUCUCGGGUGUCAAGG | -0.353
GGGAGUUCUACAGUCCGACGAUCCCUCAAGUCCUGUGCUACACAUCGUAUGUACCGAAUCGGCGGGGCGGGGCGGGAAAGUAUUAUGUUACGCCGUUCGGAUCUGCACUUCCAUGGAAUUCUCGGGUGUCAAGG | 1.1
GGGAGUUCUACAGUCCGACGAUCUAACUUUAGAGGAGGAUCUGAUGGAUAUGGCAGUGGACGUGGAUUUGGGGAUGGCUAUAAUGGGUAUGGAGGAGGACCUGGAGGUUGCAAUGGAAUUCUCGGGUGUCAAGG | 0.0687
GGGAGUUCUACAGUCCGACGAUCGCAGGAAGUAAAAACAAAUGGAAAUGCUUCGGAUAGUGGCAGGGGUUGGGGUUGCUAAGGAAAGGGUGGGAUGGGAGUGGGUAAAGAGUUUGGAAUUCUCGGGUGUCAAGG | 0.767
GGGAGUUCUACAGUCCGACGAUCCUCAAGUCCUGUGCUACACAUCGUAUGUACCGAAUCGGUUUUUGGAGGAAAGGAAAGUAUUAUGUUACGCCGUUCGGAUCUGCACUUCCAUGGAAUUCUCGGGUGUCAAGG | -0.385
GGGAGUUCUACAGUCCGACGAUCAAGUCCUGUGCUACACAUCGUAUGUACCGAAUCGGAAAAGGGGAAAAGGAAAAGGGGAAAGUAUUAUGUUACGCCGUUCGGAUCUGCACUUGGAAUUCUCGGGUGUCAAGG | -0.633
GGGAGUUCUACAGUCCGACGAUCCACAGACAACACGCACCCACACAGACACAGAGGGAAGGGGUUGGGAUGGGGACAGGGUGCACAGCAGGAAAGGGUAGGACCCCAGCCCCUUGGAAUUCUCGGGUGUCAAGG | 1.78
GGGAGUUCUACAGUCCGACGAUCUUUAUCAUGAGGAGCUCAACGCGCCCAUACGGAGAAACAAAGAAGAGCCCAAGGCCCGGCCCUUGAGAGUAGGUGACACGGAGAAGCCAGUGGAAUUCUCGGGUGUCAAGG | -0.445
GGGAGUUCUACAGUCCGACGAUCCAAGUCCUGUGCUACACAUCGUAUGUACCGAAUCGGGUUUUUGGGAAAGGGAGGGAAAGUAUUAUGUUACGCCGUUCGGAUCUGCACUUCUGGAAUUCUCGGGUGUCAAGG | 0.601

Further values, each from its own experiment
Molecule | target | test | test system | setting | scale | quantity | result
PhoQ, residues 284 288 289 292 302 303 SSTLLI | PhoP, residues 12 14 15 18 19 AQALL (Escherichia coli, UniProt P23836) | Sort-seq, measured: YFP reporter | E. coli | PhoQ-PhoP variant library, with: 10 µM Mg2+ | relative to: high Mg2+ state, higher = stronger signaling | fold induction | 19.2

Excerpt of the above (series 3):
Strand | E-score
CCCTAACA | 0.0568
ATCCTATG | 0.116
AGAACAAC | -0.0518
ATAGGCAG | 0.24
ATGTCGCG | -0.0614
AACCTGGT | -0.187
CCGTGAAG | -0.204
GCGGCATA | -0.0395
GGGAGCCC | -0.431
AAAGGAAA | 0.262
CACCAGAC | -0.224
